Experimental data gathered from unrelated publications.
Every numbered part comes from another study and shows a few of its results, in no order.

Block 1
Target: Interferon regulatory factor 7, full length, phosphomimetic (IRF7, Homo sapiens, UniProt Q92985, residues 1-503, S471D/S472D/S475D/S476D/S477D/S483D/S484D/S487D)
Method: protein-binding microarray
Molecule type: double-stranded DNA, one strand shown
Sample: in vitro
Tested at: 2200 nM top
Notes: 60-bp whole probe
Added: salmon DNA 0.4 mg/ml
Baseline: random background probes
Reading: higher = stronger binding
Measurement: fitted relative affinity
Constant ends, left off below: GCCTAGCAC … GTCTTGATTCGCTTGACGCTGCTG
Residues (chain): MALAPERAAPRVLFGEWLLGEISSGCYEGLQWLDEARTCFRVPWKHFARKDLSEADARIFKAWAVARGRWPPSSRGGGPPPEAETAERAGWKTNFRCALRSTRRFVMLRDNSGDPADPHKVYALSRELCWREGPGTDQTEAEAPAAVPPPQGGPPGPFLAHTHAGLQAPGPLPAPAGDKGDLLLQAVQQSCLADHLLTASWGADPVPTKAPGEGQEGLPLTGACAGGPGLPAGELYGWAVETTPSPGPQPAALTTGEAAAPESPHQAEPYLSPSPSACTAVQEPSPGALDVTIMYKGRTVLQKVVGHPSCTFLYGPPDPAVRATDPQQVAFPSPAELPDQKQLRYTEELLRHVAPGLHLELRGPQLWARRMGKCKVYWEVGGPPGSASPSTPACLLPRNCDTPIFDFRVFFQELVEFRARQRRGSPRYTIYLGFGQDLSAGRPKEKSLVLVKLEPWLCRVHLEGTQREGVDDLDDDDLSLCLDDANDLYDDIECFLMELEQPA
GACGGTCTCGGTCACGGGACGTGCTAG: -0.456 z-score
TTTGGTATCGACACTGGGTTAGTGCTA: 0.655 z-score
CCAACACTCGGTTTCCAAATGTGCTAG: 4.76 z-score
GGTCTTCTGGACTGTTTGGTCGTGCTA: 0.529 z-score
GACGGTCTACTTTTCCTGACGTGCTAG: 1.23 z-score
GGATGAAGCGCTTCTCGAGTGGTGCTA: -0.0688 z-score
TTAGATATTGGGTTTCGATTAGTGCTA: 2.77 z-score
GACGGTCTCCTTATCCTGAAGTGCTAG: 0.911 z-score
GAAGGACTGGACTATCGGGACGTGCTA: -0.902 z-score
TTAGGTATCGGGTGTCGGTTAGTGCTA: 0.114 z-score
TTAGGTTACCTTCTCCTTTAGTGCTAG: 1.24 z-score
TTAGGTATCCTTTACCTTTAGTGCTAG: 0.662 z-score
TTAGATATCTTTTTCCTAATGTGCTAG: 0.789 z-score
CTAGGTTTCCTTATCCTTTAGTGCTAG: 2.13 z-score
TTAGGTTCCCTTCTCCTTTAGTGCTAG: 1.89 z-score
TCAGTCCTGGCTTTGACACTGTGCTAG: 0.535 z-score
TTACGTATCGGGTATCGGTTAGTGCTA: 1.77 z-score
TCATGTTTGGCCCTGAAACTGTGCTAG: 1.04 z-score
TTATGACTGGGTATCGGTTAGTGCTAG: 0.48 z-score

Block 2
Target: POU, POU domain (Salpingoeca helianthica)
Method: Spec-seq
Molecule type: double-stranded DNA, one strand shown
Sample: in vitro
Tested at: not given
Notes: whole probe, mean of replicates
Baseline: not given
Reading: lower = stronger binding
Measurement: relative binding energy
Constant ends, left off below: GAGTCGTCTCGTCAGCAC … CCGTAGAGCACTCAGGTC
Residues (chain): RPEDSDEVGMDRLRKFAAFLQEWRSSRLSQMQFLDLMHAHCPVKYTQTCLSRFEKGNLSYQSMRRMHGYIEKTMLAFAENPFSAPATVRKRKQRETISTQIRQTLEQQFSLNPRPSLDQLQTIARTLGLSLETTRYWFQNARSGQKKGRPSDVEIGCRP
ATCCGTAT: 1.31 ln ratio
ATGCCGGT: 1.46 ln ratio
TCTATAAT: 0.371 ln ratio
ATTGTAAT: 0.141 ln ratio
TCACTAAT: 0.371 ln ratio
TCGATAAT: 0.244 ln ratio
AGGCTAAT: 0.59 ln ratio
AACCTAAT: 0.593 ln ratio
ATCTAAAT: 0.991 ln ratio
ATCGTAAT: 0.167 ln ratio
ATCACCAT: 1.04 ln ratio
ATTATCAT: 0.43 ln ratio
GAGGTAAT: 0.911 ln ratio
ATGCCTTC: 1.32 ln ratio
ATAGGTAT: 1.32 ln ratio
GTGATAAT: 0.491 ln ratio
ATTAATAT: 0.0245 ln ratio

Block 3
Target: Histone acetyltransferase KAT6A, winged helix 1, GST fusion (KAT6A, Homo sapiens, UniProt Q92794, residues 1-85)
Method: protein binding microarray
Molecule type: double-stranded DNA, one strand shown
Sample: in vitro
Tested at: not given
Notes: 8-mer, flanks averaged, mean of 2 arrays, mostly near background
Baseline: not given
Reading: higher = stronger binding
Measurement: E-score
Construct (chain): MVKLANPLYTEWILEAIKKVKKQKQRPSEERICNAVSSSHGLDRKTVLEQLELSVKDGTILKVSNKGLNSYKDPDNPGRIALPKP
CATGTTCG: -0.0644
ATCTTTCC: -0.0401
GATTGGAC: -0.299
ACCAGCAT: -0.248
ACACTGTC: -0.00996
AAGCGTGA: 0.102
CAACTGCG: 0.235
CATCAGAG: -0.0483
GCATCCAC: 0.0709
ATGACGAA: -0.101
CTCTGCCA: -0.193
AGGATCCT: -0.228
CTTCATGC: 0.0406
AGCTGACT: -0.126
CGAATGTA: -0.00464
AAATCCGG: 0.178
CCATGGGA: -0.192
CGCATAGA: 0.0417
GTAAGCGA: -0.0971
GGTGGTTA: 0.014
CTGAAACA: -0.172
GTTCCTGA: -0.165
AGCAACGG: 0.183

Block 4
Target: Sal-like protein 4, full length isoform A (SALL4, Homo sapiens, UniProt Q9UJQ4, residues 1-1053)
Sequence of UniProt Q9UJQ4 (whole entry, looked up): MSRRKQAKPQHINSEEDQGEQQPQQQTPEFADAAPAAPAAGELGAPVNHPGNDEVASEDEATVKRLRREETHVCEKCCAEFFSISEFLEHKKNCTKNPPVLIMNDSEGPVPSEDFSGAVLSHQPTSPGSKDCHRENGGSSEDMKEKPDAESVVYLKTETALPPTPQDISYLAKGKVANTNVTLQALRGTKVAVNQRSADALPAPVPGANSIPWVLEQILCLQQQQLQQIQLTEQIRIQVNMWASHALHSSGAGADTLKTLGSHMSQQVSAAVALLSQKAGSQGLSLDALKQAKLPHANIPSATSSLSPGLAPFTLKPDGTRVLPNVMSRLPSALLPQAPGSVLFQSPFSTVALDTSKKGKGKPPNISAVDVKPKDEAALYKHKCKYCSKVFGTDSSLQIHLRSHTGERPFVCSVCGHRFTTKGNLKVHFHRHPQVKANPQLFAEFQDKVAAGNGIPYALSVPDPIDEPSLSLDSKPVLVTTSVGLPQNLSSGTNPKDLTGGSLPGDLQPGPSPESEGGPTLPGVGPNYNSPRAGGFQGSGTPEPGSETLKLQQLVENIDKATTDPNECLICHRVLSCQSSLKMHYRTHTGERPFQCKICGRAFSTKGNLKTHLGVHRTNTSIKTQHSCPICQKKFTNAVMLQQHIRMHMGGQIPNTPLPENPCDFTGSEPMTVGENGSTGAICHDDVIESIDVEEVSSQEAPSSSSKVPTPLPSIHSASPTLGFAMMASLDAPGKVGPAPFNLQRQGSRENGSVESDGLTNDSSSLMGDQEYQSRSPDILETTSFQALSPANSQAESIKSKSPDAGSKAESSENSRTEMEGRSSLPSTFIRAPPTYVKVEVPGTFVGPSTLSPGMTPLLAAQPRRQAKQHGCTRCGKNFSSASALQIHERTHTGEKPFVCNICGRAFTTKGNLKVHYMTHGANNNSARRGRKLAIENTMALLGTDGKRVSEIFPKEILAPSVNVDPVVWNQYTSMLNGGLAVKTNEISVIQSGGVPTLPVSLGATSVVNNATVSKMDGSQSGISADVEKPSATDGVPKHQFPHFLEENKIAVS
Method: universal PBM
Molecule type: double-stranded DNA, one strand shown
Sample: in vitro
Tested at: 600 nM
Notes: 8-mer, flanks averaged, mean of replicates
Reading: higher = stronger binding
Measurement: E-score
ATTACTTC: 0.165
ACAGATGG: -0.0846
ACACCGGG: -0.306
ATTGCTCG: -0.0271
AAAGACGA: 0.0853
AGGTTGGC: -0.219
CACGCTCC: -0.308
ACCCTAAC: -0.0669
CCCATCCA: -0.0878
CGAGTGGC: -0.214
ACGCTGAG: -0.154
ACGGCGAT: -0.0599
ATACCTTC: 0.0632
GACCCCGC: -0.283
GAAACTAA: 0.0547
GAGGGAAC: -0.269
AGGATTCG: -0.0763
GAAGACCA: -0.211
GACTCGGC: -0.322
CCGAGCAA: -0.327

Block 5
Target: RNA binding protein fox-1 homolog 2, RRM domain, GST-SBP tag (RBFOX2, Homo sapiens, UniProt O43251-10, residues 100-194)
Method: RNA Bind-n-Seq
Molecule type: RNA
Sample: in vitro
Tested at: 365 nM
Notes: natural RNA segment, single round, ends assumed
Baseline: no-protein control
Reading: higher = stronger binding
Measurement: RBNS enrichment (R)
Construct (chain): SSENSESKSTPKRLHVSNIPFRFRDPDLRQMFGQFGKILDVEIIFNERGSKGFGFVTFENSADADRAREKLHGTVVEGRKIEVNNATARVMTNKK
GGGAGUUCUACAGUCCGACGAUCUUUGUCUCGGUUGCUAUUCCAAGAACAGAAGGAGGAAGUUGGCCAAUUACAGCGUGUGUGCAUGGAUGUGUGUGGGGGGCGUGCCUCUCAGAAACGCGGCCAGAAGACAAUGGAAUUCUCGGGUGCCAA: 2.55
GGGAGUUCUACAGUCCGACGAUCAUGUCUUUCUAAAAUUGUCUAUUAAAGCAGAGGAAAUACCUGCCAAAGGAAGUAUGUAUUGCAUUAAUCAGGGCAUAACUAAUAUUCUCCUGUUCAGAAUAAUACUUAUUUGGAAUUCUCGGGUGCCAA: 0.475
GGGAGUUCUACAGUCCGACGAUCUAAGCUAAAGGGCACUGUUUAUUUCAUGAAACCUUUAAACAUGUCAAAAUGUUUAGUAUAAGAACACUUAGUCUACAUGCUGGGGUGCCUAGCUUACACAGAGCCUGGGUUGGAAUUCUCGGGUGCCAA: 0.332
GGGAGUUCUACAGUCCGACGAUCUUCUCGUGUUCUUUUGUUUCCGAGUGCUUAUAAUGCAUGUAGACCUUGUUCUUCGUGAUCCUGCUAUGUGAUUGGUCACAGAGUUUUAGAUUCAGGAAAGAAUGUUACCAUGGAAUUCUCGGGUGCCAA: 1.37
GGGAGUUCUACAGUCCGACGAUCACCUGUCCUGGAGACCGAAGUGCCAUCACACCGGGCGGCCUGCGGCUUGGGGCCCCAGCCUUAACUUCUCGACAGUUCCGUGAGGAUGACUUCCGGAGAGUUGUGGACUUUGGAAUUCUCGGGUGCCAA: 0.245
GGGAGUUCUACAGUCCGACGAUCAAGAGCAUGUGAAGAUGUGAUCAUUUGUGAUGUUACUUGUAAAAAAAAGUAUAUAUACAUAUCUUUUGAAGUGUUAAAAGGAAACUAGUACUUUAUAUUCUUUAUCAUAUUGGAAUUCUCGGGUGCCAA: 7.34
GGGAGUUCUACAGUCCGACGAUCGGGUCAGGAGUUGCAAGUUUAACUCCGUCCUCACUUGUAGCAUUGAAUGCCUCCUGUGCUGUCUAGUGGGACUACAGAAUGCUGUUUGAUACUGUGUGCGACGUGGAGAGUGGAAUUCUCGGGUGCCAA: 5.75
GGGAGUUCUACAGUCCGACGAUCUUUAUUUUUAACUGUUUGCCACUGCUGCCCUCACCCCUGCCCGGCUCUGGAGUACCGUCUGCCCCAGACAAGUGGGAGUGAAAUGGGGGUGGGGGGAAGCACUGAUUCCCUGGAAUUCUCGGGUGCCAA: 0.278

For quick reference, copied from above (block 3):
CGAATGTA: -0.00464
AAATCCGG: 0.178
CCATGGGA: -0.192
CGCATAGA: 0.0417
GTAAGCGA: -0.0971
GGTGGTTA: 0.014
CTGAAACA: -0.172
GTTCCTGA: -0.165
AGCAACGG: 0.183
